# Experimental data pooled from the literature.
# Protocols differ between the studies behind these lines. Values joined by “and” are separate records of one study, mostly repeats; a detail may differ.
# Target: Protein kinase C eta type (PRKCH, Homo sapiens, UniProt P24723)
Structure (SMILES),observed,mode,technique,concentration,relative to,quantity,value
CNC(=O)C1CCN(c2cc(C)c(F)cc2NC(=O)c2ccc(-c3cc(O)ccc3C)c(C)c2)CC1,binding,,competition with immobilised ligand,1 µM,,remaining binding,95%
CC(C)=CC1OC(C)(C)C2C=C3C(=O)C(Cl)=CC(O)C3C3C(O)C4OC4C(=O)C132 (centres unmarked),cell-free assay,,competition with immobilised ligand,10 µM,,remaining binding,90%
CN1CCN(Cc2ccc(-c3ccc(CO[C@H]4CCC[C@@H]4NC(=O)c4cc(-c5cnn(C)c5)cnc4N)cc3)cc2)CC1,enzyme activity,inhibitor,,0.1 µM,,inhibition,2%
Cc1ccc(-c2c(/C=C(\C#N)C(=O)NC(C)C)n(CCCO)c3ncnc(N)c23)cc1,cell-free assay,,competition with immobilised ligand,1 µM,,remaining binding,90%
CCN1CCN(Cc2ccc(C(=O)Nc3ccc(C)c(NCc4cnc5[nH]ccc5c4OC)c3)cc2C(F)(F)F)CC1,binding,,competition with immobilised ligand,1 µM,,remaining binding,95%
CNC(=O)C[C@H](Cc1ccc(C#N)cc1)NC(=O)c1cc(-c2ccc(CN[C@H](C)c3ccc(C)cc3)o2)ccc1Cl,enzyme activity,inhibitor,,1 µM,,activity vs control,120%
Cc1cccc(O[C@H]2CCC[C@@H](C(C)CNCc3ccncc3)C2)c1 (relative stereo),enzyme activity,,,10 µM,,inhibition,-1%
CNC1C[S+]2CC[S+]3CC[S+](C1)[Ru-4]321([N]=C=S)[n]2c3ccc(OC)cc3c3c4c(c5cc(F)c[n+]1c5c32)C(=O)NC4=O (centres unmarked),,,KinomeScan,0.1 µM,untreated,remaining binding,82%
NC(=O)C[C@H]1CCc2sc3ncnc(O[C@H]4CC[C@H](N5CCOCC5)CC4)c3c21,enzyme activity,inhibitor,,10 µM,,inhibition,3%
COc1c(Cl)cccc1Nc1c(-c2ccncc2C#C[C@@]2(C)CCCN2C(=O)/C=C/CN(C)C)[nH]c2c1C(=O)NCC2,cell-free assay,,competition with immobilised ligand,3 µM,,remaining binding,83%
Nc1ncc(-c2cc(-c3cnn(CC(F)(F)F)c3)ncc2F)nc1C(=O)NC1CNCC(F)C1 (centres unmarked),enzyme activity,,,1 µM,DMSO control,remaining activity,90.2%
C=CC(=O)Nc1cccc(-c2cnc3[nH]cc(C(=O)NC(C)(C)C)c3n2)c1,kinase activity,,,0.1 µM,,inhibition,-1% and 5%
Nc1ncc2c(n1)-c1c([nH]c3ccc(C4=CCOCC4)cc13)CCC2,binding,,competition with immobilised ligand,1 µM,,remaining binding,99%
CN1CC[C@@H](COc2cnc(C#N)cc2-c2ccn3nc(NC(=O)C4CC4)cc3c2)C1,enzyme activity,inhibitor,,1 µM,,inhibition,-17%
